Published values gathered from unrelated publications.
Each numbered part is a random draw from the data of one study; scales do not carry over between parts.

Sample 1
Target: Histone acetyltransferase KAT6A, winged helix 1, GST fusion (KAT6A, Homo sapiens, UniProt Q92794, residues 1-85)
Method: protein binding microarray
Form: double-stranded DNA, one strand shown
Matrix: in vitro
Tested at: not given
Notes: 8-mer, flanks averaged, mean of 2 arrays, mostly near background
Baseline: not given
Reading: higher = stronger binding
Construct (chain): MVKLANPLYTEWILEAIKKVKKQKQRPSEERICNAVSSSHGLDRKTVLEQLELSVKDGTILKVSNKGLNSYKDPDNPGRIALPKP
Strand | E-score
CATCGTAA | 0.0593
AGGCAGCA | -0.208
AGGAACAT | -0.253
ATATTCGA | -0.00677
ATCACATC | -0.2
GTAAGTTA | -0.0717
TCATTTCA | -0.279
AGGACCGC | 0.324
AGGCTTTC | -0.16
CGCGACAC | 0.211
CGCACAAC | 0.164
GGGGATGA | -0.0675
ATCAACCA | -0.104
CGTCCCCC | 0.181
AGAAATCA | -0.186
GCTGCGAA | -0.0708
AGTGGGGA | -0.0958
CCGACGAC | 0.134
GGAATGCA | -0.17
AGCGTATG | 0.145
AATATCCA | -0.0892
AGTCGAGG | -0.0798
AAACGACT | -0.125
GACATATA | 0.00108
AGCGTCAT | -0.0119

Sample 2
Target: RING finger protein unkempt homolog, zinc fingers 1-6, GST-SBP tag (UNK, Homo sapiens, UniProt Q9C0B0, residues 30-357)
Method: RNA Bind-n-Seq
Form: RNA
Matrix: in vitro
Tested at: not given
Notes: RNA with constant flanks, human-mouse chimeric sites, ends assumed
Baseline: input RNA pool
Reading: higher = stronger binding
Residues (chain): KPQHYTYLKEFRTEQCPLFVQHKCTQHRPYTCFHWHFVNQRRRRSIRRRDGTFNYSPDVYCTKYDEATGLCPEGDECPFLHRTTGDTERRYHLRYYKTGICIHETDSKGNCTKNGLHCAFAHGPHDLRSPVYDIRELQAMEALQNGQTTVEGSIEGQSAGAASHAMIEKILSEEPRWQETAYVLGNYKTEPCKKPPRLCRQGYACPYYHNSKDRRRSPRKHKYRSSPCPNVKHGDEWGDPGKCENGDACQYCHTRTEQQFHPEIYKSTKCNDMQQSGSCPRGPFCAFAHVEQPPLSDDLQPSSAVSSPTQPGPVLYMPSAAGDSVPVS
Strand | bound/input enrichment [ratio]
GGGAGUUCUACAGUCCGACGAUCAUGGAACAUUUCGAUGCGUCACUCAGUACCUAUUUCAAGGCCUUCCUGGGCCCCCGAGAUACAAGAGUCAAAGGAUGGUUCCUCCUGGACAAUUAUAUCCCUACGUUUAUCUGCUCUGUUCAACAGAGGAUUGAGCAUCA | 0.0627
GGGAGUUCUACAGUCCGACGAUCUAAGUCCAUUUGUAAGCCUUCGCUCAUAAAGUUUUAAAUUCUGGACCAAUAGUGUUUAUCUUUAGAAUAUUGUAUCCAAUACUUUGCCUAGUAUGUAACUCACUCUUACUGAUAAUAAAACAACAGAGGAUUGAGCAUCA | 17.5
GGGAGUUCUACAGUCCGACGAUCAGCGUUCAGGAAUUCAUGACCUUCACGAGUCAACUGAUUGUGGAACGCUCGGGGAAAGGCAGCAGAGCUUCUGUCAAAGAACAAGAGUAUCUUUGCCAUGUCUACGUCCGGAGCGACAGUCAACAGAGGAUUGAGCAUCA | 0.0753
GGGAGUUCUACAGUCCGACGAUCCUGUUUUACAGCCACACCAAUCUUGGCAUGUAUUAAGGAAAAAAAAAAUCCCUGUUGAAGUAGUUUUUCCACCUAUCAGCACUGAGUAAAUGCCAUAAAUCCAUUGAAAUGGUCUAAAUACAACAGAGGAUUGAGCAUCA | 0.221
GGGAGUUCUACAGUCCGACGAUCAAAAUAGACUAUGGCGAGUACAUGGAUAAAAACAAUGUGAGGCGGCAAGCAACAACAAUCAUAGCUGAUAACAUUAUAUUUCUGAGUGACCAGACGAAAGAAAAGGCAUAGAACGGAUGACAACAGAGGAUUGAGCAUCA | 2.43
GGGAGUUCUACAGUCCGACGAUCAUGGAACAUUUCGAUGCGUCACUCAGUACCUAUUUCAAGGCCUUCCUAGGCCCUCGAGAUACAAGAGUAAAAGGAUGGUUCCUCCUGGACAAUUACAUCCCUACGUUUGUCUGUUCUGUUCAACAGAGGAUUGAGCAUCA | 0.0871
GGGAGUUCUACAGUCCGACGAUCUAAGUUAAGCUUUUAAUCUUUGUAAAUUCUUAACAUUUUUAUAUUGCCAUGUUUAUUUUGUUUGGGUGCUUUAUUAAAUUAAGUACAUAGCUAAGGUAAUGAACAUCUUUUUCAGUAAUUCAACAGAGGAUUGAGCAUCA | 0.637
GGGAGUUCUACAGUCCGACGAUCAUCAAGUACUUUGGGGACAUCAUUAGUGUGGGACAGAGACUGUUGCAAGGAGCUCGGAUCUUAGGGAUUCCAGUUAUCAUAACGGAACAAUACCCUAAAGGACUUGGCAGCACCGUUCAACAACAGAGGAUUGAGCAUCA | 0.177

Sample 3
Target: Max-binding protein MNT, bHLH-zipper, MAX partner unstated (MNT, Homo sapiens, UniProt Q99583, residues 220-300)
Method: protein-binding microarray
Form: double-stranded DNA, one strand shown
Matrix: in vitro
Tested at: not given
Notes: k-mer, scored over probes, only values ≥0.25
Reading: higher = stronger binding
Target sequence (chain): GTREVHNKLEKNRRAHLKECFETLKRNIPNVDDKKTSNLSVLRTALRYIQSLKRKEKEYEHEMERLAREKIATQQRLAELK
Strand | E-score
AATACACG | 0.341
CCCATGCA | 0.349
ATGAGGCG | 0.276
GTGGTAAC | 0.253
CATGCTAC | 0.329
GCTCCCCA | 0.32
CATGTCTC | 0.334
AAGCATGA | 0.284
CGCACCCA | 0.301
GCATGCTA | 0.401
GTGTCAAA | 0.255
ACGCGGAA | 0.285
ACGAGGAT | 0.255
CATATGCG | 0.309
CACCACCC | 0.252
CAGCATGC | 0.419
CGATCCAC | 0.272
ACCCCATG | 0.387
CATGCATA | 0.274
CATGCGAG | 0.395

Sample 4
Target: Ras GTPase-activating protein-binding protein 1, full length (G3BP1, Homo sapiens, UniProt Q13283)
UniProt Q13283, sequence (whole entry, looked up): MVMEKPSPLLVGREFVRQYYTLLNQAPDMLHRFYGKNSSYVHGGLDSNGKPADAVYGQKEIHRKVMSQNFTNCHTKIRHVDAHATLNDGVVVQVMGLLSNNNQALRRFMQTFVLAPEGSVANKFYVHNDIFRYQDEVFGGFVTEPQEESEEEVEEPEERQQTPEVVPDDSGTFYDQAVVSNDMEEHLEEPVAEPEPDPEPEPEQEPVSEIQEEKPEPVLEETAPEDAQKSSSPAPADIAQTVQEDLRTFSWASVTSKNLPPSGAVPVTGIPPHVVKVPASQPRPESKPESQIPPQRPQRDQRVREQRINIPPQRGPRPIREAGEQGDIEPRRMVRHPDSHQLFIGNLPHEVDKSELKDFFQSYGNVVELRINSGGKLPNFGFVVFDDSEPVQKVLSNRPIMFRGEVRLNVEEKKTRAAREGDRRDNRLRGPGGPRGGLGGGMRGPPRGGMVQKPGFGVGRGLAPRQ
Method: RNA Bind-n-Seq
Form: RNA
Matrix: in vitro
Tested at: 200 nM
Notes: whole 134-nt RNA, ends assumed
With: 150 mM LiCl
Baseline: input library
Reading: higher = stronger binding
Each molecule: 7-deaza-guanosine replaces G
Strand | log2 enrichment
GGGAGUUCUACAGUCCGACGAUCUGGGAGGUGGAUUUUGUUUAUUUUUUUAGCUCAUUUCCAGGGGUGGGAAUUUUUUUUUAAUAUGUGUCCUGAAUAAAGUUGUUUUUGAAAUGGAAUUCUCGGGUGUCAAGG | 0.000299
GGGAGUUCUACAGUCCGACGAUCCAAGUCCUGUGCUACACAUCGUAUGUACCGAAUCGGAAAAAAAGGAAAAAGGAGGAAAGUAUUAUGUUACGCCGUUCGGAUCUGCACUUCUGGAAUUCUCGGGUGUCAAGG | -0.66
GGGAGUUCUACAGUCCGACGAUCUGGUGGACCCGCAGCAGCUGGGCAUGUUCACGGAGGGCGAGCUGAUGUCGGUGGGUAUGGACACGUUCAUCCACCGCAUCGACUCCACCGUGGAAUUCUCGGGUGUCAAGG | -1.77
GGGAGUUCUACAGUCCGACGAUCUCCUGUGCUACACAUCGUAUGUACCGAAUCGGGGAAAGGGGUUUGGGGAAAAAAAGGGGAAAGUAUUAUGUUACGCCGUUCGGAUCUGCAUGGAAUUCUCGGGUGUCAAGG | -0.821
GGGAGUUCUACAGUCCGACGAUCUCCUGUGCUACACAUCGUAUGUACCGAAUCGGGUUUUUUUGGGAAAGGGUUUUUUUGGGAAAGUAUUAUGUUACGCCGUUCGGAUCUGCAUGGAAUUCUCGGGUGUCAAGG | -1.34
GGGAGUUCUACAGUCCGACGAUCUCCUGUGCUACACAUCGUAUGUACCGAAUCGGGGUUUUUGGGGUGGGGAAAAAAAGGGGAAAGUAUUAUGUUACGCCGUUCGGAUCUGCAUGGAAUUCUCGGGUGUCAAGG | -1.08
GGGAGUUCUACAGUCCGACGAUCUGGGAGACGAUCGCGAUGAACACGGUGCUGUCGCGGGCGAACUCACUGUUCGCCUUCUCGCUGAGCGUGAUGGCGGCGCUCACCUUCGGCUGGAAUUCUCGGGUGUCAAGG | -1.32
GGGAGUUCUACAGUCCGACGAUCCUCAAGUCCUGUGCUACACAUCGUAUGUACCGAAUCGGUUGGGGUUGGGGUUGGAAAGUAUUAUGUUACGCCGUUCGGAUCUGCACUUCCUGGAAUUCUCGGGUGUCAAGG | 0.0751

Repeated from above (sample 2):
Strand | bound/input enrichment [ratio]
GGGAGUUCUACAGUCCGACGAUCUAAGUUAAGCUUUUAAUCUUUGUAAAUUCUUAACAUUUUUAUAUUGCCAUGUUUAUUUUGUUUGGGUGCUUUAUUAAAUUAAGUACAUAGCUAAGGUAAUGAACAUCUUUUUCAGUAAUUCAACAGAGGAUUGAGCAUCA | 0.637
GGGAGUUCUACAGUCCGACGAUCAUCAAGUACUUUGGGGACAUCAUUAGUGUGGGACAGAGACUGUUGCAAGGAGCUCGGAUCUUAGGGAUUCCAGUUAUCAUAACGGAACAAUACCCUAAAGGACUUGGCAGCACCGUUCAACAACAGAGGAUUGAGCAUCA | 0.177
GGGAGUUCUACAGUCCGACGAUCCUGUUUUACAGCCACACCAAUCUUGGCAUGUAUUAAGGAAAAAAAAAAUCCCUGUUGAAGUAGUUUUUCCACCUAUCAGCACUGAGUAAAUGCCAUAAAUCCAUUGAAAUGGUCUAAAUACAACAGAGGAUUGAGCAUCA | 0.221
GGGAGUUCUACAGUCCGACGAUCUAAGUCCAUUUGUAAGCCUUCGCUCAUAAAGUUUUAAAUUCUGGACCAAUAGUGUUUAUCUUUAGAAUAUUGUAUCCAAUACUUUGCCUAGUAUGUAACUCACUCUUACUGAUAAUAAAACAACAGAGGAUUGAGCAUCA | 17.5
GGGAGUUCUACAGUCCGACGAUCAAAAUAGACUAUGGCGAGUACAUGGAUAAAAACAAUGUGAGGCGGCAAGCAACAACAAUCAUAGCUGAUAACAUUAUAUUUCUGAGUGACCAGACGAAAGAAAAGGCAUAGAACGGAUGACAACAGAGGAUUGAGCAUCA | 2.43
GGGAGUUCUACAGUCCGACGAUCAUGGAACAUUUCGAUGCGUCACUCAGUACCUAUUUCAAGGCCUUCCUGGGCCCCCGAGAUACAAGAGUCAAAGGAUGGUUCCUCCUGGACAAUUAUAUCCCUACGUUUAUCUGCUCUGUUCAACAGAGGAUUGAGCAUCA | 0.0627
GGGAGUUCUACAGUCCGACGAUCAGCGUUCAGGAAUUCAUGACCUUCACGAGUCAACUGAUUGUGGAACGCUCGGGGAAAGGCAGCAGAGCUUCUGUCAAAGAACAAGAGUAUCUUUGCCAUGUCUACGUCCGGAGCGACAGUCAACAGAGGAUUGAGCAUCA | 0.0753
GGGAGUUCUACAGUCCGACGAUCAUGGAACAUUUCGAUGCGUCACUCAGUACCUAUUUCAAGGCCUUCCUAGGCCCUCGAGAUACAAGAGUAAAAGGAUGGUUCCUCCUGGACAAUUACAUCCCUACGUUUGUCUGUUCUGUUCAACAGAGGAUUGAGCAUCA | 0.0871
